Assay results pooled from the literature.
Every numbered part comes from another study and shows a few of its results, in no order. Several values in a cell are separate wells, animals, samples, runs or records. Substitutions count along the parent as printed.
UniProt O60674, sequence (whole entry, looked up): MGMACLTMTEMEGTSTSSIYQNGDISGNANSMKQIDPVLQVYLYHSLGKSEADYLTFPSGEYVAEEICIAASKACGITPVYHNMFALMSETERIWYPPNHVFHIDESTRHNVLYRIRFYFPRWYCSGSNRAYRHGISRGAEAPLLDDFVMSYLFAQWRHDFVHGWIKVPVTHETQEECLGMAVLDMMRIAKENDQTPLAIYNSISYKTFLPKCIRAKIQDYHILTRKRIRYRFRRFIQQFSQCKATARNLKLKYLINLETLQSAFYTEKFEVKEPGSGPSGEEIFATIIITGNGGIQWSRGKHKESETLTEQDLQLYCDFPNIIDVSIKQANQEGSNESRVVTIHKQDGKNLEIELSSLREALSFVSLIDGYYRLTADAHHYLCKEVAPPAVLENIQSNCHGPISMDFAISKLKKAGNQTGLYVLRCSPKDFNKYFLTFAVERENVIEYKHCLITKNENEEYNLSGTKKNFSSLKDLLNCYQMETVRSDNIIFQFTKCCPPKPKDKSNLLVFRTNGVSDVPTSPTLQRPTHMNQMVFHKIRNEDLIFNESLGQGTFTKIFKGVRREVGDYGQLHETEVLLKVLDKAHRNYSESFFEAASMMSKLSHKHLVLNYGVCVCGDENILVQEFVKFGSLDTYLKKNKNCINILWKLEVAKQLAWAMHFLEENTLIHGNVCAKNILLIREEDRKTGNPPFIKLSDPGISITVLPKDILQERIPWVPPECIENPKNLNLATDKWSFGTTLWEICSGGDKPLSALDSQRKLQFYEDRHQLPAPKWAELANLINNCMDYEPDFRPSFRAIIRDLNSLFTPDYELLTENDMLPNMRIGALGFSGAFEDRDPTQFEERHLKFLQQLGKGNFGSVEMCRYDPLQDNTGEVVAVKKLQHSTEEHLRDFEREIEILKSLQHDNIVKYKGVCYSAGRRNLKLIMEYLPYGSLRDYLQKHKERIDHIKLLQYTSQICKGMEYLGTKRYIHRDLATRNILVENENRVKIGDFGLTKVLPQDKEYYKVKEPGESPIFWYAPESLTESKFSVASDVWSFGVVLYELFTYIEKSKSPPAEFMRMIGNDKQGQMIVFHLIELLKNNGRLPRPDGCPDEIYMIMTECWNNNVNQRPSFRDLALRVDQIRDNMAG

Block 1
Target: CCNB1, cyclin fold, Cln2 fusion (human)
Technique: yeast growth competition, sequencing
Sample: yeast
Setting: strong parent motif
Relative to: not given
Reading: higher = stronger binding
Starting sequence: viral docking peptide; TSVRRALFTGGSD
Substitution | normalised enrichment score
S2D | 2.45
G11Y | 1.58
L7G | -0.167
V3T | 0.553
V3R | 0.813
A6S | 1.08
G10Y | 1.53
S2Q | 1.82

Block 2
Target: HLA class I histocompatibility antigen, A alpha chain, allele A*25:01 (Homo sapiens, UniProt P04439)
Observed: peptide-MHC binding
Form: peptide
Tested at: concentration not given
Sequence | binding
VTSSVSSGY | inactive
RRELSKEKL | inactive
LPADPASVL | inactive
SIKFKRKLM | inactive
VSANVKGNW | inactive
MFKNFPFFK | inactive
WLGDVWQEK | inactive
KQMEDGHTL | inactive

Mixed results
SMILES | target or system | test | test system | conditions | how to read | quantity | result
CN[C@@H]1C[C@H]2O[C@@](C)([C@@H]1OC)n1c3ccccc3c3c4c(c5c6ccccc6n2c5c31)C(=O)NC4 | JAK2 (Homo sapiens, UniProt O60674) | enzyme activity, inhibitor | – | 0.5 µM | relative to: control | remaining activity | 8.94% and 1.85%
N=C(N)NC(=O)Cc1c(Cl)cccc1Cl | HEK-293T | pseudovirus infection, FDA-approved drug library counter-screen | VSV pseudotyped with VSV-G | 10 µM, 16 h | relative to: vehicle-treated | GFP-positive cells | 141%

For quick reference, copied from above (block 1):
Substitution | normalised enrichment score
G10Y | 1.53
S2Q | 1.82
